# Experimental data from different studies.
# Each line is one published result; not all experiments were run side by side. Several values in a cell are separate wells, animals, samples, runs or records. Numbers after ± are the reported error.
SMILES,target or system,assay,test system,conditions,scale,measurement,result
Cc1ccc(N(O)/N=N/c2ccc(S(=O)(=O)Nc3nccs3)cc2)cc1,,carrageenan-induced paw edema,Wistar rat,"oral, 100 mg/kg, 2 h after carrageenan, added: carrageenan 1% subplantar",higher = more edema,paw edema volume,6 ± 1.24 a.u.
COC1OC(C)C(OS(=O)(=O)O)C(OC2OC(C)C(OS(=O)(=O)O)C(OS(=O)(=O)O)C2O)C1O (stereo not shown),,,human plasma,128 µg/mL,,thrombin time,9.3 ± 0.1 s
O=CCNCCOn1c(=O)n(OCCNCCO)c(=O)n(OCCNCCOn2c(=O)n(OCCNCCO)c(=O)n(OCCNCCO)c2=O)c1=O,,DPPH scavenging,,125 µg/mL,,inhibition,14.9%
COC1OC(C)C(OC2OC(C)C(OS(=O)(=O)O)C(OC3OC(C)C(OC4OC(C)C(OS(=O)(=O)O)C(OC5OC(C)C(OC6OC(C)C(OS(=O)(=O)O)C(OC7OC(C)C(OS(=O)(=O)O)C(OS(=O)(=O)O)C7O)C6O)C(OS(=O)(=O)O)C5O)C4O)C(OS(=O)(=O)O)C3O)C2O)C(OS(=O)(=O)O)C1O (stereo not shown),,,human plasma,128 µg/mL,,thrombin time,10.2 ± 0.4 s
C=CC(=O)Nc1cccc(Cn2ncc3cnc(Nc4cnn(CCOC)c4)nc32)c1,EPHB2 human,"binding, KINOMEscan",,100 nM,lower = stronger binding,percent of control,87%
CC(C)(C)NCC(SS(=O)(=O)O)c1ccccc1 (stereo not shown),,,"Swiss Webster mice, Schistosoma mansoni-infected","100 mg/kg single dose on day 42 post-infection, perfusion day 56 post-infection",,spleen weight,0.8 g
COc1cc2c(NC3CCN(C(C)C)CC3)cc(N3CCOCC3)nc2cc1OCCCN1CCCC1,,"TMT quantitative proteomics, item: ENO1","5xFAD mice, hippocampus",dose not given,,normalised protein abundance,0.0634 and -0.00519 and 0.0726 and 0.0551 and 0.0423 and 0.0674 and 0.0199
CCC(=O)N[C@@H](C)C(=O)OCC(=O)N[C@@H](C)C(=O)O,,,water,"pH 8, 50 °C",,chain scission rate constant,0.202 h⁻¹
COC1CN([C@H]2CC[C@H]([C@@]3(C)Oc4c(Cl)cc(C(=O)NCc5c(SC)cc(C)[nH]c5=O)c(C)c4O3)CC2)C1,,"RNA-seq, item: SPP1","human, whole blood","dose not given, 24 h",reference: pretreatment baseline,log2 fold change,2.65
Cc1ncsc1-c1ccc(C(C)NC(=O)C2CC(O)CN2C(=O)C(NC(=O)CCCCCCCCCCN2CCCC(Nc3ncc(Cl)c(Nc4ccccc4S(=O)(=O)C(C)C)n3)C2)C(C)(C)C)cc1 (stereo not shown),22Rv1,"RNA-seq, item: TDP1 mRNA",,concentration not given,reference: DMSO,log2 fold change,-1.03
COC1OC(C)C(O)C(OC2OC(C)C(O)C(OC3OC(C)C(O)C(OC4OC(C)C(O)C(OC5OC(C)C(O)C(OC6OC(C)C(O)C(OC7OC(C)C(O)C(OC8OC(C)C(O)C(OC9OC(C)C(O)C(OC%10OC(C)C(O)C(OC%11OC(C)C(O)C(OC%12OC(C)C(O)C(OS(=O)(=O)O)C%12OS(=O)(=O)O)C%11OS(=O)(=O)O)C%10OS(=O)(=O)O)C9OS(=O)(=O)O)C8OS(=O)(=O)O)C7OS(=O)(=O)O)C6OS(=O)(=O)O)C5OS(=O)(=O)O)C4OS(=O)(=O)O)C3OS(=O)(=O)O)C2OS(=O)(=O)O)C1OS(=O)(=O)O (stereo not shown),,,human plasma,128 µg/mL,,thrombin time,10.5 ± 0.3 s
COc1ccc(C(=O)CCc2cc(C(CCc3ccc(O)cc3OC)c3ccc(O)cc3)c(O)cc2OC)cc1 (racemic),,,human blood,"30 µM, added: A23187",,5-HETE level,4070 ± 1850 pg/mL
CC(CCC(=O)NCc1ccc(C(=O)NO)cc1)C1CCC2C3C(O)CC4CC(O)CCC4(C)C3CCC12C (stereo not shown),,item: GUDCA,"PCK rat (Pkhd1 mutant), liver","oral gavage, dose not given, 5 months",reference: total bile acids,relative abundance,3.1%
COc1cc(O)ccc1CCC(c1ccc(O)cc1)c1cc2c(c(C)c1O)OC(c1ccc(O)cc1)CC2 (mixture of isomers),,,human blood,"0.3 µM, added: A23187",,PGE2 level,23 ± 4 pg/mL
COC1OC(C)C(OS(=O)(=O)O)C(OC2OC(C)C(OS(=O)(=O)O)C(OC3OC(C)C(OS(=O)(=O)O)C(OC4OC(C)C(OS(=O)(=O)O)C(OC5OC(C)C(OS(=O)(=O)O)C(OS(=O)(=O)O)C5OS(=O)(=O)O)C4OS(=O)(=O)O)C3OS(=O)(=O)O)C2OS(=O)(=O)O)C1OS(=O)(=O)O (stereo not shown),,,human plasma,128 µg/mL,reference: control,thrombin time prolongation,0.9 fold
C=C(NC(=O)c1csc(-c2nc3c(cc2O)-c2nc(cs2)C(=O)NC(C(C)O)C(=O)NC(=C(C)OC)c2nc(cs2)C(=O)NC2c4nc(cs4)C(=O)NC(COC(=O)c4c5c6c(cccc6n4O)COC(=O)C(OC4CC(C)(O)C(N(C)C)C(C)O4)C2OC5)c2nc-3cs2)n1)C(N)=O (stereo not shown),,,"female Sprague-Dawley rats, plasma","intravenous infusion, 18 mg/kg",,AUC(0-inf),5890 ng·h/mL
COC1OC(C)C(OS(=O)(=O)O)C(OC2OC(C)C(OS(=O)(=O)O)C(OC3OC(C)C(OS(=O)(=O)O)C(OC4OC(C)C(OS(=O)(=O)O)C(OC5OC(C)C(OS(=O)(=O)O)C(OC6OC(C)C(OS(=O)(=O)O)C(OC7OC(C)C(OS(=O)(=O)O)C(OC8OC(C)C(OS(=O)(=O)O)C(OS(=O)(=O)O)C8O)C7O)C6O)C5O)C4O)C3O)C2O)C1O (stereo not shown),,,human plasma,128 µg/mL,,thrombin time,10.1 ± 0.5 s
Cc1cn(-c2cc(NC(=O)c3cc(C#Cc4cnc5c(Nc6cnn(C)c6)cccn45)c(C)cc3F)cc(C(C)(C)C#N)c2)cn1,,platelet aggregation,platelet-rich plasma,"0.1 µM, DMSO 100, added: collagen 2 mg/mL",,aggregation,75.9%
COc1ccc(NC(=O)c2ccc3[nH]c(-c4ccc(N(C)C)cc4)nc3c2)cn1,,,"Lewis lung carcinoma, mice, syngeneic graft, subcutaneous","intraperitoneal, 50 mg/kg daily, day 0",,tumour volume,164 mm3 and 141 mm3 and 275 mm3 and 135 mm3 and 182 mm3
CN1CCC[C@]1(C)/C=C/S(=O)(=O)NC(=O)Nc1c2c(cc3c1CCC3)CCC2,,,"human, whole blood ex vivo","25 mg single dose, 12 h, single ascending dose, added: LPS and ATP",,IL-1β inhibition,82.1%
COC1OC(C)C(OS(=O)(=O)O)C(OC2OC(C)C(OS(=O)(=O)O)C(OC3OC(C)C(OS(=O)(=O)O)C(OC4OC(C)C(OS(=O)(=O)O)C(OS(=O)(=O)O)C4O)C3O)C2O)C1O (stereo not shown),,,human plasma,128 µg/mL,reference: control,thrombin time prolongation,0.9 fold
CC[C@H](C)[C@H](NC(=O)[C@H](Cc1ccc(O)cc1)NC(=O)[C@H](CCC(=O)O)NC(=O)CNC(=O)[C@H](CCC(=O)O)NC(=O)[C@H](CCCCN)NC(=O)[C@H](CCCCN)NC(=O)[C@H](CC(=O)O)NC(=O)[C@H](Cc1c[nH]cn1)NC(=O)[C@H](Cc1c[nH]cn1)NC(=O)[C@H](Cc1c[nH]cn1)NC(=O)[C@H](Cc1c[nH]cn1)NC(=O)[C@H](Cc1c[nH]cn1)NC(=O)[C@H](Cc1c[nH]cn1)NC(=O)[C@H](Cc1c[nH]cn1)NC(=O)[C@H](Cc1c[nH]cn1)NC(=O)[C@H](Cc1c[nH]cn1)NC(=O)[C@@H](N)Cc1c[nH]cn1)C(=O)N[C@@H](CCCCN)C(=O)N[C@@H](CC(C)C)C(=O)N[C@@H](CCCCN)C(=O)N[C@H](C(=O)N[C@H](C(=O)NCC(=O)N[C@@H](CCC(N)=O)C(=O)N[C@@H](CC(=O)O)C(=O)N[C@@H](CO)C(=O)N[C@@H](CO)C(=O)N[C@@H](CCC(=O)O)C(=O)N[C@H](C(=O)N[C@@H](Cc1c[nH]cn1)C(=O)N[C@@H](Cc1ccccc1)C(=O)N[C@@H](CCCCN)C(=O)N[C@H](C(=O)N[C@@H](CCCCN)C(=O)N[C@@H](CCSC)C(=O)N[C@H](C(=O)N[C@H](C(=O)N[C@@H](Cc1c[nH]cn1)C(=O)N[C@@H](CC(C)C)C(=O)N[C@@H](CCCCN)C(=O)N[C@@H](CCCCN)C(=O)N[C@@H](CC(C)C)C(=O)N[C@@H](CCCCN)C(=O)N[C@@H](CCC(=O)O)C(=O)N[C@@H](CO)C(=O)N[C@@H](Cc1ccc(O)cc1)C(=O)N[C@@H](CS)C(=O)N[C@@H](CCC(N)=O)C(=O)N[C@@H](CCCNC(=N)N)C(=O)N[C@@H](CCC(N)=O)C(=O)O)[C@@H](C)O)[C@@H](C)O)C(C)C)[C@@H](C)CC)[C@@H](C)CC)C(C)C,,,Drosophila α-synuclein A53T transgenic,"240 µM, 1 day post eclosion, unit not given",reference: untreated,climbing mean difference,0

# Repeated from above:
SMILES,target or system,assay,test system,conditions,scale,measurement,result
COC1CN([C@H]2CC[C@H]([C@@]3(C)Oc4c(Cl)cc(C(=O)NCc5c(SC)cc(C)[nH]c5=O)c(C)c4O3)CC2)C1,,"RNA-seq, item: SPP1","human, whole blood","dose not given, 24 h",reference: pretreatment baseline,log2 fold change,2.65
Cc1ncsc1-c1ccc(C(C)NC(=O)C2CC(O)CN2C(=O)C(NC(=O)CCCCCCCCCCN2CCCC(Nc3ncc(Cl)c(Nc4ccccc4S(=O)(=O)C(C)C)n3)C2)C(C)(C)C)cc1 (stereo not shown),22Rv1,"RNA-seq, item: TDP1 mRNA",,concentration not given,reference: DMSO,log2 fold change,-1.03
COC1OC(C)C(O)C(OC2OC(C)C(O)C(OC3OC(C)C(O)C(OC4OC(C)C(O)C(OC5OC(C)C(O)C(OC6OC(C)C(O)C(OC7OC(C)C(O)C(OC8OC(C)C(O)C(OC9OC(C)C(O)C(OC%10OC(C)C(O)C(OC%11OC(C)C(O)C(OC%12OC(C)C(O)C(OS(=O)(=O)O)C%12OS(=O)(=O)O)C%11OS(=O)(=O)O)C%10OS(=O)(=O)O)C9OS(=O)(=O)O)C8OS(=O)(=O)O)C7OS(=O)(=O)O)C6OS(=O)(=O)O)C5OS(=O)(=O)O)C4OS(=O)(=O)O)C3OS(=O)(=O)O)C2OS(=O)(=O)O)C1OS(=O)(=O)O (stereo not shown),,,human plasma,128 µg/mL,,thrombin time,10.5 ± 0.3 s
